{"data": "Published values from different studies", "note": "Every numbered part comes from another study and shows a few of its results, in no order."}
{"data": "Block 1", "target": "Prothrombin, mature alpha-thrombin (F2, Homo sapiens, UniProt P00734)", "method": "aptamer microarray, sandwich", "form": "DNA with 2'F-ANA", "medium": "in vitro", "tested at": "200 nM", "setting": "whole 15-mer aptamer, many near background", "added": "Cy3 exosite-II aptamer, 400 nM", "reading": "higher = stronger binding", "strand": "GGTTGGTGTGGTTGG"}
{"Modification": "2'F-ANA at 5 6 10 12 14", "mean fluorescence intensity": "43.8 a.u."}
{"Modification": "2'F-ANA at 4 5 6 7 8 9 15", "mean fluorescence intensity": "70.8 a.u."}
{"Modification": "2'F-ANA at 1 2 5 6 8 10 12 13 15", "mean fluorescence intensity": "49.7 a.u."}
{"Modification": "2'F-ANA at 2 4 5 8 14", "mean fluorescence intensity": "56.6 a.u."}
{"Modification": "2'F-ANA at 1 2 3 4 5 7 8 10 11 12 13 14 15", "mean fluorescence intensity": "52.6 a.u."}
{"Modification": "2'F-ANA at 1 2 3 4 5 6 7 8 10 11 12 15", "mean fluorescence intensity": "99.1 a.u."}
{"Modification": "2'F-ANA at 1 4 5 6 7 8 12 13 14 15", "mean fluorescence intensity": "53.5 a.u."}
{"Modification": "2'F-ANA at 3 5 6 11 14", "mean fluorescence intensity": "48.1 a.u."}
{"Modification": "2'F-ANA at 1 2 4 6 9 11 12 15", "mean fluorescence intensity": "169 a.u."}
{"Modification": "2'F-ANA at 1 5 7 9 11 12 13 14", "mean fluorescence intensity": "43 a.u."}
{"Modification": "2'F-ANA at 6 7 10 11 13", "mean fluorescence intensity": "156 a.u."}
{"Modification": "2'F-ANA at 1 2 3 4 7 8 10 11 12", "mean fluorescence intensity": "78.7 a.u."}
{"Modification": "2'F-ANA at 3 4 6 8 9 10 11 13 14 15", "mean fluorescence intensity": "140 a.u."}
{"Modification": "2'F-ANA at 2 11 14", "mean fluorescence intensity": "140 a.u."}
{"Modification": "2'F-ANA at 1 3 4 8 10 11 15", "mean fluorescence intensity": "59.1 a.u."}
{"Modification": "2'F-ANA at 4 7 9 10 13 15", "mean fluorescence intensity": "114 a.u."}
{"Modification": "2'F-ANA at 1 2 3 5 6 7 9 10 12 13 14 15", "mean fluorescence intensity": "48.5 a.u."}
{"Modification": "2'F-ANA at 2 3 4 6 10 12 13 14", "mean fluorescence intensity": "158 a.u."}
{"Modification": "2'F-ANA at 1 2 4 6 7 8 10 11 13 14", "mean fluorescence intensity": "47.6 a.u."}
{"Modification": "2'F-ANA at 3 6 7 9 11 15", "mean fluorescence intensity": "707 a.u."}
{"Modification": "2'F-ANA at 1 2 3 5 6 8 13 15", "mean fluorescence intensity": "54.5 a.u."}
{"Modification": "2'F-ANA at 1 3 11 12 15", "mean fluorescence intensity": "476 a.u."}
{"Modification": "2'F-ANA at 1 3 8 10 12 13 14 15", "mean fluorescence intensity": "58.5 a.u."}
{"Modification": "2'F-ANA at 1 2 5 6 7 9 10 12 15", "mean fluorescence intensity": "51.3 a.u."}
{"data": "Block 2", "target": "RING finger protein unkempt homolog, zinc fingers 1-6, GST-SBP tag (UNK, Homo sapiens, UniProt Q9C0B0, residues 30-357)", "method": "RNA Bind-n-Seq", "form": "RNA", "medium": "in vitro", "tested at": "not given", "setting": "RNA with constant flanks, human and mouse sites, ends assumed", "reference": "input RNA pool", "reading": "higher = stronger binding", "shared flanks, not repeated": "GGGAGUUCUACAGUCCGACGAUC … CAACAGAGGAUUGAGCAUCA", "Construct (chain)": "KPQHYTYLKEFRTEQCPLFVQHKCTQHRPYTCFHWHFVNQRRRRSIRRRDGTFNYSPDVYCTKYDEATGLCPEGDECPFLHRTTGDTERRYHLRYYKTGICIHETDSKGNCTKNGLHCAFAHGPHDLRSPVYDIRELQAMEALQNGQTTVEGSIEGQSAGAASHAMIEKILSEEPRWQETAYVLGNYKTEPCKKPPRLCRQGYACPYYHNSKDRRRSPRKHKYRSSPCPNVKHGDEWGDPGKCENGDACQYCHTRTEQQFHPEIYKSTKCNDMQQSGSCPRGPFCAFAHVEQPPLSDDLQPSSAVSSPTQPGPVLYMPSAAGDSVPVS"}
{"Strand": "UCAAAUAAUUAUAACAACAUGAACAACAGAAAUGUGAAAAACUCAAAUUACUGUCUUCCAUCAUAUACCGCUUAUAAGAACUAUGAUUAUUCGGAACCUGGAAGAAACAAUGAACAGCCA", "bound/input enrichment": "0.372 ratio"}
{"Strand": "GUCAGCAGGCCCACCCUAGAGGAGCUGGAAACCCUACACAAGUACUUUCAGCUAGAUGUCAGCCUGGCACAGCUGUAUAGCCACUGGGCUUCUGUAGACUCCCACUUCCAAAGAGUGGCC", "bound/input enrichment": "0.225 ratio"}
{"Strand": "AUCAUACACUUCCUUCUUUUUUAAAAAAGUUGGGUUUUCUCCAUUCAGGAUUCUGUUCCUUAGGUUUUUUUCCUUCUGAAGUGUUUCACGAGAGCCCGGGAGCUGCUGCCCUGCGGCCCC", "bound/input enrichment": "0.564 ratio"}
{"Strand": "AUAACUGAAAUCAGAGAUACUGGUGUAAUGGUAAAAUUAUAUCCAAAUAUGACUGCGGUACUGCUUCAUAACACACAACUUGAUCAACGAAAGAUUAAACAUCCUACUGCCCUAGGAUUA", "bound/input enrichment": "0.275 ratio"}
{"Strand": "UAUUUAAGUAUAUGGCCUUCCAGACUUUUCUGUGCAUUUAUAGAUAUUUUUAAUGGGAUCAAAGUGUACAUACUGUUUUGUAACUUUUUUUCACUCAACAAUACCAUGACUGUCUUGCUG", "bound/input enrichment": "0.788 ratio"}
{"Strand": "CUCGAGAGGAACCAGGACAUGAGCCGGCAGUACGAGCAGAUGCACAAGGAGCUGACGGACAAGCUAGAGCACCUAGAACAAGAGAAACAUGAACUGAGAAGGCGAUUCGAGAAUCGAGAA", "bound/input enrichment": "0.0936 ratio"}
{"Strand": "AAGGACCAGUUCAAGAUGCCCCGGGACUGAGGCCGCCCUGCACCUUCAGCGGAUUUGGGGAUUAGGCUCUUUUAGGUAACUGGCUUUCCUGCUGGUCCGUGCGGGAAAUUCAGUCUUGAU", "bound/input enrichment": "1.08 ratio"}
{"Strand": "UAGCUUGAGCUUUCUUUUUGGCCAUCUUUUAAAACUUUUUUUUUUUUUUUUGAUCUAUAAAAUAGACAAGAGAUAGUUCUACAAUGUCCAAGUCAUUCCAGCAGUCAUCUCUCGGUAGGG", "bound/input enrichment": "1.14 ratio"}
{"data": "Block 3", "target": "RNA binding protein fox-1 homolog 2, RRM domain, GST-SBP tag (RBFOX2, Homo sapiens, UniProt O43251-10, residues 100-194)", "method": "RNA Bind-n-Seq", "form": "RNA", "medium": "in vitro", "tested at": "365 nM", "setting": "natural RNA segment, single round, ends assumed", "reference": "no-protein control", "reading": "higher = stronger binding", "shared flanks, not repeated": "GGGAGUUCUACAGUCCGACGAUC … UGGAAUUCUCGGGUGCCAA", "Construct (chain)": "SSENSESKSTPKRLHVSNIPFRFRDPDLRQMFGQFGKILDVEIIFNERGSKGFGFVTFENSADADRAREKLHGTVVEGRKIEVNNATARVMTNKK"}
{"Strand": "UUCACACAACGCCUCACCACCACCAGCCUCCAGGCAAAACCAGAUAGGAUGCACCGUUCUAGCACCUGUCCAGGGACCACCGAGCCCAGGCCUCAGCCUCCCUAAGAUGG", "RBNS enrichment (R)": 0.626}
{"Strand": "AUCUCCACCCCCCAAGAGCCAUUGAGUGAGGUGCUUUUAGCCCUUUUGACUAAUUAGAAAUUCAGGCUGCUUGGGAUAAUGAGACAAGGACCAGAACCUCCUCCCCACCU", "RBNS enrichment (R)": 0.391}
{"Strand": "UUAUUAUACACAGCUCUGUAAACUACCACUCAGCCCUGUGUUGGGGUCCUCAAAGAAGUAAGGCCACAGUAAUCAAGCAAGGGCCUUUGGUUUUUUCCAGAGUUAGAUCC", "RBNS enrichment (R)": 0.319}
{"Strand": "GAAGACCAGGGGGAGUCAGGUGGUAUGACAGGGCCGAAGGGCAACAAAAUCUCCAUUUCCUUGUGCCUGGCACUGUCUCGAGCCUAAGCUAUUUUAAAGAUGUUUUAAAC", "RBNS enrichment (R)": 0.632}
{"Strand": "UUCCCUCUGUGUAGCUUUGUGGGGAUUUCAUGUAUAUAUGCUGUCUGAAAGAAUCCAGAGGUUGGAGUGCCAAUAGAAAAUGAAAACAAAUGCCUUGUACUACAGGCAGC", "RBNS enrichment (R)": 0.903}
{"Strand": "UAGAAUGUCAUUUUGCCCUCAACCUUGGUAUUUCUCCUGGGGCCCUUUUAGUCUUGUGCUGACUUUCUCCUGUCCUCUUCCAGUUUAGAAUAAGACAGGGGAGAAAAAGG", "RBNS enrichment (R)": 0.618}
{"Strand": "UCCUCUCCCAUCAAAUGGCAUUAACACAAUUGGUAAAGAUGGUCCCUCAAAUGACUCCCCCCCCCCCAUUUUUGUCUUUGGGAACUGAAGUCAGAGGCACCAAGUCUAAC", "RBNS enrichment (R)": 0.772}
{"Strand": "UCUGUCUUUGCAGUUUUGGUAAUUCUGUGGUCUAUUUAUACAGAUAUUAAAAUCUUGUUUAUAGACAGCUGUGUGAUGUUUAACUUCAAAGCCCAGGGAUGACAACGUGG", "RBNS enrichment (R)": 0.269}
{"data": "Block 4", "target": "Histone acetyltransferase KAT6A, winged helix 1, GST fusion (KAT6A, Homo sapiens, UniProt Q92794, residues 1-85)", "method": "protein binding microarray", "form": "double-stranded DNA, one strand shown", "medium": "in vitro", "tested at": "not given", "setting": "8-mer, flanks averaged, mean of 2 arrays, mostly near background", "reference": "not given", "reading": "higher = stronger binding", "Residues (chain)": "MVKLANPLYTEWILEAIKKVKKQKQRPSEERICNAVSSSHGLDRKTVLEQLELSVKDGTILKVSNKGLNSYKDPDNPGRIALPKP"}
{"Strand": "TTGGTAAA", "E-score": -0.0085}
{"Strand": "CACTCTTA", "E-score": -0.243}
{"Strand": "AGACCCCC", "E-score": 0.153}
{"Strand": "AATGGCAT", "E-score": -0.0961}
{"Strand": "AGGATCGC", "E-score": 0.0966}
{"Strand": "CACCCGGA", "E-score": 0.0299}
{"Strand": "ACTACAAA", "E-score": -0.152}
{"Strand": "ACCCGCGC", "E-score": 0.442}
{"Strand": "GCAGTACC", "E-score": -0.0402}
{"Strand": "ACATGTCG", "E-score": -0.0267}
{"Strand": "GCGATGGA", "E-score": 0.172}
{"Strand": "AAACTTGA", "E-score": -0.173}
{"Strand": "CTGATCCC", "E-score": -0.139}
{"Strand": "AATGGGAC", "E-score": -0.183}
{"Strand": "AGATACTA", "E-score": 0.0562}
{"Strand": "GCGTAGCC", "E-score": 0.133}
{"Strand": "CAGCTCGC", "E-score": -0.0612}
{"Strand": "CCTAAATA", "E-score": -0.00796}
{"Strand": "GAAGTATC", "E-score": -0.11}
{"Strand": "GGATTGCC", "E-score": 0.058}
{"note": "A few entries again (block 2):"}
{"Strand": "AUCAUACACUUCCUUCUUUUUUAAAAAAGUUGGGUUUUCUCCAUUCAGGAUUCUGUUCCUUAGGUUUUUUUCCUUCUGAAGUGUUUCACGAGAGCCCGGGAGCUGCUGCCCUGCGGCCCC", "bound/input enrichment": "0.564 ratio"}
{"Strand": "AUAACUGAAAUCAGAGAUACUGGUGUAAUGGUAAAAUUAUAUCCAAAUAUGACUGCGGUACUGCUUCAUAACACACAACUUGAUCAACGAAAGAUUAAACAUCCUACUGCCCUAGGAUUA", "bound/input enrichment": "0.275 ratio"}
{"Strand": "UAUUUAAGUAUAUGGCCUUCCAGACUUUUCUGUGCAUUUAUAGAUAUUUUUAAUGGGAUCAAAGUGUACAUACUGUUUUGUAACUUUUUUUCACUCAACAAUACCAUGACUGUCUUGCUG", "bound/input enrichment": "0.788 ratio"}
